Experimental data of several laboratories.
Each line is one published result; not all experiments were run side by side. ± marks the error that the study gave.
Target: Albumin (ALB, Homo sapiens, UniProt P02768)

Nc1ccc2c(c1)C(=O)N(C1CCC(=O)NC1=O)C2=O (stereo not shown)  fraction unbound (equilibrium dialysis; human serum albumin 50 mg/mL; 6 h, 37 °C): 0.839
CN(C)c1ccc2c(-c3cc(C(=O)N4CCN(CCCOc5ccc6nccc(C(=O)NCC(=O)N7CC(F)(F)C[C@H]7C#N)c6c5)CC4)ccc3C(=O)[O-])c3ccc(=[N+](C)C)cc-3oc2c1  unbound fraction: 0.29
CC[C@H](C)[C@H](NC(=O)[C@H](Cc1ccccc1)NC(=O)[C@H](CCC(=O)O)NC(=O)[C@H](CCCCN)NC(=O)[C@H](C)NC(=O)[C@H](C)NC(=O)[C@H](CCC(N)=O)NC(=O)CNC(=O)[C@H](CCC(=O)O)NC(=O)[C@H](CC(C)C)NC(=O)[C@H](Cc1ccc(O)cc1)NC(=O)[C@H](CO)NC(=O)[C@H](CO)NC(=O)[C@@H](NC(=O)[C@H](CC(=O)O)NC(=O)[C@H](CO)NC(=O)[C@@H](NC(=O)[C@H](Cc1ccccc1)NC(=O)[C@@H](NC(=O)CNC(=O)[C@H](CCC(=O)O)NC(=O)[C@H](C)NC(=O)[C@@H](N)Cc1c[nH]cn1)[C@@H](C)O)[C@@H](C)O)C(C)C)C(=O)N[C@@H](C)C(=O)N[C@@H](Cc1c[nH]c2ccccc12)C(=O)N[C@@H](CC(C)C)C(=O)N[C@H](C(=O)N[C@@H](CCCCN)C(=O)NCC(=O)N[C@@H](CCCNC(=N)N)C(N)=O)C(C)C  Kd (binding, SPR; pH 7.4): 180 µM
CN(CCCN1CCN(C(=O)CN2CCN(CC(=O)[O-])CCN(CC(=O)[O-])CCN(CC(=O)[O-])CC2)CC1)c1ccc2nccc(C(=O)NCC(=O)N3CC(F)(F)C[C@H]3C#N)c2c1.[Lu+3]  Kd (binding, fluorescence quenching): 31.1 µM
CN1CCN(c2ccc3[nH]c(-c4ccc5[nH]c(-c6ccc(OCCCCNC(=O)c7ccc8c(c7)C7(OC8=O)c8ccc(N(C)C)cc8C(C)(C)c8cc(N(C)C)ccc87)cc6)nc5c4)nc3c2)CC1  Kd (binding, second site, fluorescence titration; PBS): > 1000 µM
Nc1ccc2c(c1)CN(C1CCC(=O)NC1=O)C2=O (stereo not shown)  fraction unbound (equilibrium dialysis; human serum albumin 50 mg/mL; 6 h, 37 °C): 0.918
Cc1cc(C)n2c1C=C1C=CC(CCC(=O)N3CCN(CCCOc4ccc5nccc(C(=O)NCC(=O)N6CC(F)(F)C[C@H]6C#N)c5c4)CC3)=[N+]1[B-]2(F)F  unbound fraction: 0.09
O=C1CCC(N2Cc3ccccc3C2=O)C(=O)N1 (stereo not shown)  fraction unbound (equilibrium dialysis; human serum albumin 50 mg/mL; 6 h, 37 °C): 0.442
N#C[C@@H]1CC(F)(F)CN1C(=O)CNC(=O)c1ccnc2c(NC(=O)[C@@H](N)CCCCNC(=O)CCOCCOCCOCCOCCOCCOCCNC(=O)CN3CCN(CC(=O)[O-])CCN(CC(=O)[O-])CCN(CC(=O)[O-])CC3)cccc12.[177Lu+3]  binding to ALB (ultrafiltration; human serum albumin; concentration not given, 30 min, 37 °C, with: albumin 45 mg/mL): decreased
CN1CCN(c2ccc3[nH]c(-c4ccc5[nH]c(-c6ccc(OCCCCNC(=O)c7ccc8c(c7)C7(OC8=O)c8ccc(N(C)C)cc8[Si](C)(C)c8cc(N(C)C)ccc87)cc6)nc5c4)nc3c2)CC1  Kd (binding, fluorescence titration; PBS; 1 h): 73 ± 59 µM
